Published values gathered from unrelated publications.
Lines come from different studies, so protocols differ. Several values in a cell are separate wells, animals, samples, runs or records. ± marks the error that the study gave. In brackets after ≈: the same amount, converted by molar mass.
KCNQ3/KCNQ2: Voltage-gated potassium channel, KQT; KCNQ2(Kv7.2)/KCNQ3(Kv7.3) (KCNQ3/KCNQ2, Homo sapiens, UniProt O43525+O43526)
lecA: PA-I galactophilic lectin (lecA, Pseudomonas aeruginosa, UniProt Q05097)
lasR: Transcriptional activator protein LasR (lasR, Pseudomonas aeruginosa, UniProt P25084)

Under “dissociation rate constant”, `CN1C(=O)[C@H](Cc2ccccc2)N(C)C(=O)[C@@H]2[C@H]1CCN2Cc1cc(Cl)cc(Cl)c1` is recorded as 0.0369 s⁻¹ (NKG2-D type II integral membrane protein (KLRK1, Homo sapiens, UniProt P26718); surface plasmon resonance).
For `Cn1cc(-c2cccc(CN3CCC4(CC3)COc3c4ccc4c3CN([C@H]3CCC(=O)NC3=O)C4=O)c2)cn1`, the degradation was 65% (Ikzf2/Crbn (Mus musculus, UniProt P81183+Q8C7D2, I391V); mouse Crbn I391V, thymus; oral, 30 mg/kg single dose, 6 h).
`CCN(Cc1ccccc1)C(=O)CCc1nc(CN2CCN(C(=O)Cc3ccc(OC)c(OC)c3)CC2)no1` gave an activation V1/2 of -53.5 mV (KCNQ3/KCNQ2; potassium current, whole-cell patch clamp; CHO, stable; 10 µM).
`Nc1ccc(C(O)(C(F)(F)F)C(F)(F)F)cc1`: “STD NMR signal” 0% (Amyloid-beta precursor protein, amyloid-beta 1-40 oligomers (APP, Homo sapiens, UniProt P05067); binding, STD NMR; highest STD).
`O=c1oc2cc(O)c(O)cc2c2oc3cc4c(cc3c12)OCO4` gave a Ki of 342 µM (Genome polyprotein, NS5B polymerase (Hepatitis C virus genotype 1b, UniProt P26663); RNA polymerase activity, uncompetitive inhibitor; together with: poly rA/U12 varied, UTP 25 µM).
`CC[C@H](C)[C@H](NC(=O)[C@H](CCCCN)NC(=O)[C@H](Cc1ccccc1)NC(=O)[C@H](CCCCNC(=O)[C@H](CC(C)C)NC(=O)[C@@H]1CCCN1C(=O)[C@H](CCCCN)NC(=O)c1ccc(O[C@@H]2O[C@H](CO)[C@H](O)[C@H](O)[C@H]2O)cc1)NC(=O)[C@H](CC(C)C)NC(=O)[C@@H]1CCCN1C(=O)[C@H](CCCCN)NC(=O)c1ccc(O[C@@H]2O[C@H](CO)[C@H](O)[C@H](O)[C@H]2O)cc1)C(N)=O`: “relative potency per galactoside” 18 and 20 (lecA; binding, isothermal titration calorimetry; divided by galactoside copies; baseline: monovalent galactoside KD over ligand KD).
For `CC(C)C[C@H](NC=O)C(=O)N[C@@H](C)C(=O)N[C@@H](C)C(=O)N[C@@H](CC(=O)O)C(=O)N[C@@H](CC(C)C)C(=O)N[C@@H](CC(C)C)C(=O)N[C@@H](C)C(=O)N[C@@H](C)C(=O)N[C@@H](CC(C)C)C(=O)NCC(=O)N[C@@H](CC(=O)O)C(=O)N[C@@H](CC(C)C)C(=O)N[C@@H](C)C(=O)N[C@@H](CCCCN)C(=O)N[C@@H](Cc1c[nH]c2ccccc12)C(=O)N[C@@H](CC(C)C)C(=O)N[C@@H](CC(C)C)C(=O)N[C@@H](CC(=O)O)C(=O)N[C@@H](C)C(=O)N[C@@H](CC(C)C)C(=O)N[C@@H](C)C(=O)N[C@@H](CCCCN)C(=O)N[C@@H](C)C(=O)N[C@@H](C)C(=O)N[C@@H](CCCCN)C(=O)N[C@@H](CCCCN)C(=O)O` (racemic), “binding free energy” read -7.4 kcal/mol (POPC membrane; membrane binding, stopped-flow FRET; mole fraction units, room temperature).
The ΔTm of `O=C(CC12CC3CC(CC(C3)C1)C2)NCCOCC(=O)NC1CCN(S(=O)(=O)c2cc(C(=O)Nc3cc(F)c(F)c(F)c3)ccc2F)CC1` is reported as 5.4 °C (Capsid protein (C, Hepatitis B virus genotype D subtype ayw, UniProt P03146); cellular thermal shift; Hepatitis B virus, HepAD38 cell lysate; 6 µM; baseline: DMSO).
The PKA activation of `C[C@@]1(O)CC[C@H]2[C@H](CC[C@@H]3[C@@H]2CC[C@]2(C)[C@@H](C(=O)Cn4cccn4)CC[C@@H]32)C1` is reported as 97.5 ± 11.2% (Membrane progesterone receptor epsilon (Paqr9, Mus musculus, UniProt Q6TCG2); pPKA/PKA immunoblot; MDA-MB-231 expressing Paqr9-GFP; 300 nM, 20 min; baseline: control).
`CC[C@H](C)[C@H](NC(=O)[C@H](Cc1c[nH]cn1)NC(=O)[C@H](CCCCNC(=O)[C@@H](NC(=O)[C@H](CCCCN)NC(=O)[C@H](Cc1ccccc1)NC(=O)[C@H](CCCCNC(=O)[C@H](CC(C)C)NC(=O)[C@@H]1CCCN1C(=O)[C@H](CCCCN)NC(=O)c1ccc(O[C@@H]2O[C@H](CO)[C@H](O)[C@H](O)[C@H]2O)cc1)NC(=O)[C@H](CC(C)C)NC(=O)[C@@H]1CCCN1C(=O)[C@H](CCCCN)NC(=O)c1ccc(O[C@@H]2O[C@H](CO)[C@H](O)[C@H](O)[C@H]2O)cc1)[C@@H](C)CC)NC(=O)[C@@H](NC(=O)[C@H](CCCCN)NC(=O)[C@H](Cc1ccccc1)NC(=O)[C@H](CCCCNC(=O)[C@H](CC(C)C)NC(=O)[C@@H]1CCCN1C(=O)[C@H](CCCCN)NC(=O)c1ccc(O[C@@H]2O[C@H](CO)[C@H](O)[C@H](O)[C@H]2O)cc1)NC(=O)[C@H](CC(C)C)NC(=O)[C@@H]1CCCN1C(=O)[C@H](CCCCN)NC(=O)c1ccc(O[C@@H]2O[C@H](CO)[C@H](O)[C@H](O)[C@H]2O)cc1)[C@@H](C)CC)C(N)=O`: “entropy term (−TΔS)” 2.6 ± 1.5 kcal/mol (lecA; ITC; pH 7.5, 25 °C).
The inhibition of `CC(=O)NC(Cc1ccc(Br)c(Cl)c1)C(=O)N[C@@H](C)C(=O)N1CCC[C@H]1C(=O)N1CCC[C@H]1C(=O)N[C@@H](CCC(=O)O)C(=O)N[C@@H](Cc1c[nH]cn1)C(=O)N[C@@H](CO)C(=O)N[C@H](C(=O)N[C@@H](C)C(N)=O)[C@@H](C)OP(=O)(O)O` (stereo partly shown) is reported as 0.31% (CSNK2A1 (Homo sapiens, UniProt P68400); enzyme activity, inhibitor; 10 µM).
`Nc1ncnc2c1ncn2C1OC(CSCCCCNCc2cccc(-c3ccc(Cl)cc3)c2)C(O)C1O` (stereo not shown) has a relative inhibition of 2.5 (DNA adenine methyltransferase CamA (Clostridioides difficile, UniProt Q183J3); methyltransferase activity, inhibitor; concentration not given; baseline: cpd over JNJ-64619178).
`CC[C@H](C)[C@@H]1NC(=O)[C@H](Cc2ccc(O)cc2)NC(=O)[C@@H](N)CSSC[C@@H](C(=O)N2CCC[C@H]2C(=O)N2CCC[C@H]2C(=O)NCC(N)=O)NC(=O)[C@H](CC(N)=O)NC(=O)[C@H](CCC(N)=O)NC1=O` has an Emax of 1880 RFU (Oxytocin receptor (Macaca mulatta, UniProt P56494); membrane hyperpolarisation; CHO cells).
`CC[C@H](C)[C@H](NC(C)=O)C(=O)N[C@H]1CSSC[C@@H](C(=O)N[C@H](C(N)=O)[C@@H](C)O)NC(=O)[C@H](CCCNC(=N)N)NC(=O)[C@H](Cc2c[nH]cn2)NC(=O)[C@H](C)NC(=O)CNC(=O)[C@H](Cc2c[nH]c3ccccc23)NC(=O)[C@H](CC(=O)O)NC(=O)[C@H](CCC(N)=O)NC(=O)[C@H](Cc2cc3cccc4ccc5cccc2c5c43)NC(=O)[C@H](C(C)C)NC1=O` gave a koff of 0.048 ± 0.012 s⁻¹ (Complement C3, C3b fragment (Homo sapiens, UniProt P01024); pH 7.4).
`CCCCC/C=C\C/C=C\C/C=C\C/C=C\CCCC(=O)NC(CO)C(=O)O` (stereo in doubt): “activation time constant ratio” 0.76 ± 0.02 (KCNQ3/KCNQ2; two-electrode voltage clamp; Xenopus oocytes; 10 µM, at +20 mV, 100 mM K+; baseline: compound over control).
`O=c1c(Cl)c(Cl)cnn1Cc1ccccc1` gave an MIC of 5.7 µM (≈ 1.45 µg/mL) (Disulfide bond formation protein B (Escherichia coli, UniProt P0A6M2); DsbB inhibition reporter; Escherichia coli, agar; calculated, likely underestimated).
`CC(C)P(=S)(NP(=S)(C(C)C)C(C)C)C(C)C` — result for “number of binding sites”: 0.79 ± 0.05 (Alpha-amylase (Bacillus subtilis, UniProt P00691); fluorescence quenching; concentration not given, 304 K).
`O=[N+]([O-])c1ccc(OP(=O)(O)O)cc1` has a kcat of 6.6 s^–1 (Alkaline phosphatase PafA (pafA, Elizabethkingia meningoseptica, UniProt Q9KJX5, R164A); substrate; pH 8.0).
The activation of `O=C(N[C@H]1CCOC1=O)c1cccc(-c2cn(-c3ccc4[nH]ccc4c3)nn2)c1` is reported as 1% (lasR; reporter gene, agonist; Escherichia coli, DH5α pJN105L/pSC11; 100 µM; baseline: OdDHL at same concentration).
The LLE of `CN(C)C(=O)C(NC(=O)c1ccccc1-c1ccc(C(F)(F)F)cc1)c1cccc(C(F)(F)F)c1` (stereo not shown) is reported as 5 ± 0.9 , 1.4 (NKG2-D type II integral membrane protein, with ULBP6 (KLRK1, Homo sapiens, UniProt P26718); cellular TR-FRET displacement; pIC50 minus ChromLogD).
Under “relative catalytic efficiency”, `O=P(O)(O)Oc1ccccc1` is recorded as 5.5 (Alkaline phosphatase PafA (pafA, Elizabethkingia meningoseptica, UniProt Q9KJX5, N100A); Chryseobacterium meningosepticum; pH 8.0; baseline: wild type over mutant kcat/KM).
`CCCCCc1cn(-c2ccc(C(=O)N[C@H]3CCOC3=O)cc2)nn1` has an activation of 0% (lasR; reporter gene, agonist; Escherichia coli DH5α pJN105L/pSC11; 10 µM; baseline: OdDHL 100 µM).
